Values quoted from earlier work, collected from citations in different studies.
Each line is one published result; not all experiments were run side by side. “And” joins repeats or separate records; there may be more than shown. ± marks the error that the study gave.
Grin2b with GluN1a: Glutamate receptor ionotropic, NMDA 2B, with GluN1a (Grin2b, Rattus norvegicus, UniProt Q00960)
Equilibrative nucleoside transporter 2: Equilibrative nucleoside transporter 2 (Homo sapiens, UniProt Q14542)
ADORA2A: Adenosine receptor A2a (ADORA2A, Homo sapiens, UniProt P29274)

Substance	target	test	system	setting	Ki
CCc1cc(Cl)c(OC)c(C(=O)NC[C@@H]2CCCN2CC)c1O	D(4) dopamine receptor (DRD4, Homo sapiens, UniProt P21917)				46.4 ± 6.94 nM
C[C@@H]1CCO[C@H]2Cn3cc(C(=O)NCc4ccc(F)cc4F)c(=O)c(O)c3C(=O)N12	Multidrug and toxin extrusion protein 1 (SLC47A1, Homo sapiens, UniProt Q96FL8)	inhibitor		geometric mean of reported	6420 nM
O=c1c(-c2ccc(O)cc2)coc2cc(O)cc(O)c12	protein tyrosine kinases	enzyme activity, inhibitor			2600 to 18000 nM
O=C(O)[C@H]1NCCN(C(=O)c2ccc3c(c2)CCc2ccccc2-3)[C@H]1C(=O)O	Grin2b with GluN1a	ion current, antagonist	Xenopus oocytes expressing GluN1/GluN2B, rat		760 ± 110 nM
O=C(O[C@@H]1Cc2c(O)cc(O)cc2O[C@@H]1c1cc(O)c(O)c(O)c1)c1cc(O)c(O)c(O)c1	intestinal UDP-glucuronosyltransferase	reversible inhibitor		together with: raloxifene substrate	≤ 2000 nM and ~2000 nM
O=C(NCCCCN1CCN(c2ccccc2OCCF)CC1)c1ccc(-c2ccsc2)cc1	sigma 1 receptor				> 5000 nM
CS(=O)(=O)c1ccc(CSc2ncnc3c2ncn3C2CC(CO)C(O)C2O)cc1 (centres unmarked)	adenosine kinase (Toxoplasma gondii)			apparent Ki equals apparent Km	74000 ± 7800 nM
CC(Oc1ccc(O)cc1)(P(=O)(O)O)P(=O)(O)O	inositol monophosphatase, bovine frontal cortex	inhibitor			420 nM
OCC1CC(n2cnc3c(SCc4ccc(F)cc4)ncnc32)C(O)C1O (centres unmarked)	adenosine kinase (Toxoplasma gondii)			apparent Ki equals apparent Km	32000 ± 8300 nM
NCCCNC(=O)[C@H]1O[C@@H](n2cnc3c(N)ncnc32)[C@H](O)[C@@H]1O	adenosine A3 receptor	binding			> 10000 nM
O=C(O)c1cc([C@H]2CCN[C@@H]2C(=O)O)ccc1Br	Glutamate receptor ionotropic, kainate 3 (Rattus norvegicus, UniProt P42264)	binding, [3H]kainate displacement		cloned homomeric receptor	> 100000 nM
COc1ccccc1CN(C(C)=O)c1cnccc1Oc1ccccc1	Translocator protein, open form (TSPO, Homo sapiens, UniProt P30536)		human brain tissue	mixed-affinity binders, high-affinity site	~4 nM and 4 nM
OCC1CC(n2cnc3c(SCc4ccc(Br)cc4)ncnc32)C(O)C1O (centres unmarked)	adenosine kinase (Toxoplasma gondii)			apparent Ki equals apparent Km	21000 ± 3700 nM
Nc1nc2c(ncn2[C@@H]2O[C@H](CO)[C@@H](O)[C@H]2O)c(=O)[nH]1	Equilibrative nucleoside transporter 2		ENT1 knockout		160000 ± 52000 nM
Cc1ccc(CSc2ncnc3c2ncn3C2CC(CO)C(O)C2O)c(C)c1C (centres unmarked)	adenosine kinase (Toxoplasma gondii)			apparent Ki equals apparent Km	63000 ± 6900 nM
Nc1ncnc2c1ncn2[C@@H]1O[C@H](COP(=O)(O)OP(=O)(O)OP(=O)(O)O)[C@@H](O)[C@H]1O	calf intestinal alkaline phosphatase	substrate inhibition, molybdenum blue			19000 nM
O=C(c1ccc(F)cc1)C1CCN(C2Cc3c(cccc3OCCF)CC2O)CC1 (single isomer, unassigned; (-)) [fluorine-18 labelled]	Vesicular acetylcholine transporter (SLC18A3, Homo sapiens, UniProt Q16572)	binding		together with: [3H]vesamicol	0.59 nM
MANT-XTP	Adcy2/ADCY5, C1/C2 domains (Rattus norvegicus, UniProt P26769+P30803)	enzyme activity, inhibitor		together with: 10 mM MnCl2 and 100 µM forskolin	4600 ± 510 nM
C=CCN1CCC[C@H]1CNC(=O)c1cc(CCCF)cc(OC)c1OC	dopamine D2 receptor, rat	binding	rat brain homogenate	together with: [3H]spiperone	0.05 nM
O=C(O)[C@H]1NCCN(S(=O)(=O)c2ccc(-c3ccccc3)cc2)[C@H]1C(=O)O	Glutamate receptor ionotropic, NMDA 2A, with GluN1a subunit (Grin2a, Rattus norvegicus, UniProt Q00959)	ion current, antagonist	Xenopus oocytes expressing GluN1/GluN2A, rat		13600 ± 1800 nM
OCC1CC(n2cnc3c(SCc4ccccc4)ncnc32)C(O)C1O (centres unmarked)	adenosine kinase (Toxoplasma gondii)			apparent Ki equals apparent Km	105000 ± 12000 nM

Substance	target	test	system	setting	Ki
NC(=O)c1ccc[n+]([C@@H]2O[C@H](COP(=O)([O-])OP(=O)(O)OC[C@H]3O[C@@H](n4cnc5c(N)ncnc54)[C@H](O)[C@@H]3O)[C@@H](O)[C@H]2O)c1	Alcohol dehydrogenase E chain (Equus caballus, UniProt P00327)	enzyme activity, coenzyme		pH 8.0, 25 °C, Kia coenzyme	27000 nM
OCC1CC(n2cnc3c(SCc4ccc(Cl)cc4Cl)ncnc32)C(O)C1O (centres unmarked)	adenosine kinase (Toxoplasma gondii)			apparent Ki equals apparent Km	61000 ± 7900 nM
Nc1nc(Cl)nc2c1ncn2[C@@H]1O[C@H](COP(=O)(O)OP(=O)(O)O)[C@@H](O)[C@@H]1F	Ribonucleoside-diphosphate reductase large subunit (Homo sapiens, UniProt P23921)	enzyme activity, inhibitor			17 nM
Nc1ncnc2c1ncn2[C@@H]1O[C@H](COP(=O)(O)OP(=O)(O)O)[C@@H](O)[C@H]1O	P2Y purinoceptor 1 (P2RY1, Homo sapiens, UniProt P47900)		astrocytoma cells		900 nM
O=C(O)[C@@H]1NCCN(C(=O)c2ccc3c(ccc4ccccc43)c2)[C@H]1C(=O)O	Grin2b with GluN1a	ion current, antagonist	Xenopus oocytes expressing GluN1/GluN2B, rat		9100 ± 1000 nM
Nc1ncnc2c(CN3C[C@H](CSc4ccc(Cl)cc4)[C@@H](O)C3)c[nH]c12	Aminodeoxyfutalosine nucleosidase (Helicobacter pylori, UniProt Q9ZMY2)	inhibitor			0.57 nM
CNC(=O)[C@@]12C[C@@H]1[C@@H](n1cnc3c(NCc4cccc(I)c4)nc(Cl)nc31)[C@H](O)[C@@H]2O	ADORA2A	binding			784 ± 97 nM
bivalirudin	thrombin	inhibitor			~10 nM
Nc1nc(=O)c2c([nH]1)NC[C@@H]1CN(c3ccc(C(=O)N[C@@H](CCC(=O)O)C(=O)O)cc3)C(=O)N21	human cytosolic C1-tetrahydrofolate synthase	dehydrogenase activity			18 ± 5 nM
[Mg+2]	CNGA1 channel wild type	inhibitor			20000 nM
O=c1ccn([C@@H]2O[C@H](CO)[C@@H](O)[C@H]2O)c(=O)[nH]1	Equilibrative nucleoside transporter 2		ENT1 knockout		180000 ± 30000 nM
C=CC1=C(C)c2cc3[nH]c(cc4nc(cc5[nH]c(cc1n2)c(C)c5CCC(=O)O)C(CCC(=O)O)=C4C)c(C)c3C=C	TSPO			together with: [3H]Ro5-4864	2140 nM
O=c1[nH]c(=O)c2[nH]c(=O)c(=O)n(C[C@H](O)[C@H](O)[C@H](O)CO)c2[nH]1	Bacillus subtilis lumazine synthase	inhibitor	recombinant β60 capsid	pH 7.0, Tris·HCl buffer, together with: 2 constant, 1 varied	7800 ± 500 nM
CC1CN(c2ccc3ccccc3n2)CCN1CCCCN1C(=O)c2ccccc2C1=O (centres unmarked)	SERT (human)	binding	human tissue	together with: [3H]5-HT	8 ± 4.07 nM
CNC(=O)[C@@]12C[C@@H]1[C@@H](n1cnc3c(NC4CCCC4)nc(Cl)nc31)[C@H](O)[C@@H]2O	ADORA2A	binding	HEK293 expressing target		3250 ± 300 nM
O=C(O)c1ccc(/C=C2\SC(=S)N(c3cccc(C(F)(F)F)c3)C2=O)cc1	Cystic fibrosis transmembrane conductance regulator (CFTR, Homo sapiens, UniProt P13569)	channel function	intact epithelial cells		2000 to 5000 nM
CN1C(=N)N(C)/C(=C/c2c[nH]c3cc(Br)ccc23)C1=O	human 5-HT2A receptor		COS-7 transiently transfected		2000 nM
CCCCC/C=C\C/C=C\C/C=C\C/C=C\CCCC(=O)O	Fatty acid-binding protein, liver (FABP1, Homo sapiens, UniProt P07148)	binding, ANS displacement			110 nM
OCC1CC(n2cnc3c(SCc4ccc(OC(F)(F)F)cc4)ncnc32)C(O)C1O (centres unmarked)	adenosine kinase (Toxoplasma gondii)			apparent Ki equals apparent Km	66000 ± 7200 nM
c1ccc(CCC2CCN(CCc3ccccc3)CC2)cc1	Synaptic vesicular amine transporter, tetrabenazine binding site (Slc18a2, Rattus norvegicus, UniProt Q01827)	binding		together with: [3H]dihydrotetrabenazine	1870 ± 250 nM

A few entries again:
Substance	target	test	system	setting	Ki
Nc1nc(=O)c2c([nH]1)NC[C@@H]1CN(c3ccc(C(=O)N[C@@H](CCC(=O)O)C(=O)O)cc3)C(=O)N21	human cytosolic C1-tetrahydrofolate synthase	dehydrogenase activity			18 ± 5 nM
[Mg+2]	CNGA1 channel wild type	inhibitor			20000 nM
OCC1CC(n2cnc3c(SCc4ccccc4)ncnc32)C(O)C1O (centres unmarked)	adenosine kinase (Toxoplasma gondii)			apparent Ki equals apparent Km	105000 ± 12000 nM
O=C(O)c1cc([C@H]2CCN[C@@H]2C(=O)O)ccc1Br	Glutamate receptor ionotropic, kainate 3 (Rattus norvegicus, UniProt P42264)	binding, [3H]kainate displacement		cloned homomeric receptor	> 100000 nM
